# Assay results from different studies.
# “And” joins repeats or separate records; there may be more than shown. ± marks the error that the study gave.
SMILES,assay,system,conditions,how to read,endpoint,result
O=C(Cc1cccnc1)Nc1ccc(C2CCCCC2)cc1,,cryopreserved human hepatocytes,1 µM,,hepatic clearance,16 mL/min/kg
CC(C)C(=O)O[C@H]1[C@H](C)OC(=O)[C@@H]1Cc1ccccc1,soil adsorption,clay loam soil,"pH 6.8, organic carbon 0.5 %",,KFoc,452 mL/g
O=C(c1ccc(C2CCCCC2)cc1)N1CC(O)C1,liver microsome stability,cynomolgus liver microsomes,1 µM,,hepatic clearance,41 mL/min/kg
CCn1cc(C(=O)N2CCOCC2)c(=O)c2cc(NC3Cc4ccccc4C3)cnc21,,"human, fasted","oral suspension, 600 mg single dose, arithmetic mean",,AUC(0-last),5080 ng·h/mL
Cc1nc(-c2ccc(OCC(C)C)c(C#N)c2)sc1C(=O)O,,"KM mouse, chronic hyperuricaemia model","dose not given, day 20",,body weight,34.4 g and 32.2 g and 42 g and 37 g and 38.8 g and 31.8 g
Cc1cn(C(=O)c2c(-c3c(Cl)cc(Cl)cc3Cl)noc2C(C)(C)F)c2cccc(/C=C/C(=O)O)c12,,human patients,"1000 mg bid, cycle 1 day 1",,AUC(0-8h),151000 ng·h/mL
NS(=O)(=O)c1cccc(-c2ccc(C3CCCCC3)cc2)c1,liver microsome stability,rat liver microsomes,1 µM,,hepatic clearance,34 mL/min/kg
COc1cc(Nc2ncc3c(n2)-c2ccc(Cl)cc2C(c2c(F)cccc2OC)=NC3)ccc1C(=O)O,"item: Nausea, grade 3","cancer patients, phase 1/2","oral, dose not given, together with: pembrolizumab",,patients with adverse event,8%
Cc1ccc2cncc(N3CCc4c(cc(Cn5ccnc5)cc4-c4cn(C)nc4C(F)(F)F)C3=O)c2c1,,"CD-1 mouse, male, plasma","oral, 50 mg/kg",,AUC extrapolated,0%
O=C(Nc1ccc(-c2nc(-c3ccc(Cl)cc3)no2)cc1)[C@@H]1CC(=O)N(C[C@@H]2CCCNC2)C1,,Wistar rat male and female,"ip, 20 mg/kg",,time in open field centre,no effect
Cc1cc(-c2nccc3c2ccn3CC(=O)Nc2ccc(-c3cnccn3)cn2)ccn1,,human,"5 mg once daily, multiple ascending dose",,subjects with gastrointestinal disorders,0%
CN(C)C(=O)c1cc2cnc(Nc3ccc(N4CCNCC4)cn3)nc2n1C1CCCC1,,"human, expansion cohort, plasma","oral, 800 mg, day 8, together with: gemcitabine 1000 mg/m^2",,AUC(0-8h),9750 ng·h/mL
Cc1ccc([C@@H]2O[C@H](CO)[C@@H](O)[C@H](O)[C@H]2O)cc1Cc1ccc(-c2ccc(F)cc2)s1,item: inorganic phosphorus,Japanese type 2 diabetes patients,"400 mg, day 2, 24 h urine collection",baseline: baseline,urinary phosphate excretion change,162 mg
CN(CCC#N)C(=O)c1ccc([C@H]2[C@@H](F)[C@@H](F)C[C@@H](F)[C@H]2F)cc1,liver microsome stability,rat liver microsomes,1 µM,,hepatic clearance,15 mL/min/kg
CC(C)(C(=O)N1CCOc2c(C#N)cncc2C1)C(F)F,,"human, both sexes","oral, 20 mg single dose",,subjects with investigations TEAE,0%
CC(=O)N1CC(C(=O)Nc2ccc([C@H]3[C@@H](F)[C@@H](F)C[C@@H](F)[C@H]3F)cc2)C1,liver microsome stability,dog liver microsomes,1 µM,,hepatic clearance,7.3 mL/min/kg
CCOc1c([C@H](C)n2nc(C)c3c(N)ncnc32)cc(Cl)c(F)c1[C@@H]1CNC(=O)C1,,human B-cell malignancy patients,"oral, all doses, baseline QTcF ≤450 ms",,observations with ΔQTcF >30 to ≤60 ms,2.5%
C[Si](C)(C)O[Si](C)(C)O[Si](C)(C)C,IVIVE from S9,rainbow trout (Oncorhynchus mykiss),,,hepatic biotransformation rate constant,0.298 h⁻¹ and 0.265 h⁻¹ and 0.297 h⁻¹
C=CC[C@@H]1/C=C(\C)C[C@H](C)C[C@H](OC)[C@H]2O[C@@](O)(C(=O)C(=O)N3CCCC[C@H]3C(=O)O[C@H](/C(C)=C/[C@@H]3CC[C@@H](O)[C@H](OC)C3)[C@H](C)[C@@H](O)CC1=O)[C@H](C)C[C@@H]2OC,LC-MS/MS,"rat, whole blood","intraperitoneal, 0.5 mg/kg/day, 28 days",,trough blood level,3 ± 0.7 µg/L
CC(C(=O)Nc1ccc([C@H]2[C@@H](F)[C@@H](F)C[C@@H](F)[C@H]2F)cc1)n1cncn1 (stereo partly drawn),,cynomolgus liver microsomes,1 µM,,hepatic clearance,4.9 mL/min/kg
CCc1cc2ncc(CN3CCN(c4ccc(C(=O)NC)nc4)CC3)cc2[nH]c1=O,,"male rat, blood","oral, 5 mg/kg/day, 4 weeks",baseline: vehicle control,Lymphocytes count ratio,0.71
Cc1cc(-c2nnc(N)nc2-c2ccc(F)cc2)cc(Cl)n1,"item: decreased appetite, any grade",IO-naive patients with other tumours,"oral, 100 mg once daily",,incidence of treatment-related AE,26.3%
O=C(c1ccc(F)cc1)C1CCN(CCn2c(=O)[nH]c3ccccc3c2=O)CC1,,human liver microsomes,,,hepatic clearance,14.2 mL/min/kg
CC(C(=O)NCC(=O)NCC(CNC(=O)CNC(=O)C(C)N1CCN(CC(=O)[O-])CCN(CC(=O)[O-])CCN(CC(=O)[O-])CC1)(CNC(=O)CNC(=O)C(C)N1CCN(CC(=O)[O-])CCN(CC(=O)[O-])CCN(CC(=O)[O-])CC1)CNC(=O)CNC(=O)C(C)N1CCN(CC(=O)[O-])CCN(CC(=O)[O-])CCN(CC(=O)[O-])CC1)N1CCN(CC(=O)[O-])CCN(CC(=O)[O-])CCN(CC(=O)[O-])CC1.[Gd+3].[Gd+3].[Gd+3].[Gd+3] (stereo not drawn),"LA-ICP-MS, item: subcortical Gd layer","rat, femur","0.6 mmol Gd/kg, 1 week",,Gd bone distribution,not detected
CCc1c(-c2ccccc2)c(-c2ccccc2)nn1-c1ccccc1-c1cccc(OCC(=O)O)c1,,"Sprague-Dawley rat, plasma","oral, 10 mg/kg, 8 h",,concentration,128 ng/mL and 190 ng/mL
O=C(c1ccc([C@H]2[C@@H](F)[C@@H](F)C[C@@H](F)[C@H]2F)cc1)N1CC(O)C1,hepatocyte stability,cryopreserved mouse hepatocytes,1 µM,,hepatic clearance,21 mL/min/kg
COc1ccc2c(=O)n(C)c(-c3ccccc3)nc2c1,,"Sprague-Dawley rat, male, brain","oral, 30 mg/kg, 2 h",baseline: brain over plasma,tissue/plasma ratio,0.7
C=CCN1CC(=O)N2[C@@H](Cc3ccc(O)cc3F)C(=O)N(Cc3cccc(N4CC(N5CCN(CC)CC5)C4)n3)C[C@@H]2N1C(=O)NCc1ccccc1,,advanced solid tumour patients,"oral, 10 mg twice daily, any grade, dose-escalation",,treatment-related AST increased,0%
CC(=O)N(C)C1CCN(c2cc(F)cc(NC(=O)c3cc4c(F)ccc(C)c4[nH]3)c2)C1 (stereo not drawn),,"CD1 mouse, plasma","oral, 50 mg/kg, 4 h",,plasma concentration,21.1 ng/mL
CSCC[C@H](NC(=O)[C@@H](N)CCSC)C(=O)N[C@@H](CCCNC(=N)N)C(=O)N[C@@H](Cc1c[nH]c2ccccc12)C(=O)N[C@@H](CO)C(=O)N[C@@H](CCCNC(=N)N)C(=O)N[C@@H](CCCCN)C(=O)N[C@@H](CCSC)C(=O)N1CCC[C@H]1C(=O)N[C@@H](CS)C(=O)N[C@H](C(=O)N[C@@H](CO)C(N)=O)C(C)C,"12G5 competition, SUP-T1 cells",human plasma,"concentration not given, 8 h",,remaining activity,1 ± 0.3%
Cc1cc(NC2CCN(C(=O)OC3CCN(C(=O)/C=C/CN(C)C)C3)CC2)n2ncc(C(C)C)c2n1 (stereo not drawn),"Phase I dose escalation CTCAE v4.0, item: pain in extremity",patients with advanced solid tumours,"dose not given, Total dosing grade 3 or higher",,patients with adverse event,0%
CC(C(=O)NCC(=O)NCC(CNC(=O)CNC(=O)C(C)N1CCN(CC(=O)[O-])CCN(CC(=O)[O-])CCN(CC(=O)[O-])CC1)(CNC(=O)CNC(=O)C(C)N1CCN(CC(=O)[O-])CCN(CC(=O)[O-])CCN(CC(=O)[O-])CC1)CNC(=O)CNC(=O)C(C)N1CCN(CC(=O)[O-])CCN(CC(=O)[O-])CCN(CC(=O)[O-])CC1)N1CCN(CC(=O)[O-])CCN(CC(=O)[O-])CCN(CC(=O)[O-])CC1.[Gd+3].[Gd+3].[Gd+3].[Gd+3] (stereo not drawn),,"cynomolgus monkey, skin","dose not given, day 58, PK group",,lanthanide tissue concentration,0.021 ± 0.009 nmol/g
NS(=O)(=O)c1cc(C(=O)O)c(NCc2ccco2)cc1Cl,item: infections and infestations,healthy men,"oral, 8 days, treatment-emergent, crossover trial",,subjects with adverse event,0%
C[C@@H](N)C1CCN(S(=O)(=O)c2cccc3cnccc23)CC1,,healthy volunteers,"150 mg, fasted",,participants with serious TEAEs,0%
N#Cc1ccc2c(c1)[C@H]1CCCN(C(=O)c3ccc4[nH]cnc4c3)[C@H]1C2,,human,"80 mg, end of trial",,maximum ACTH level,12.9 pmol/L
O=C(Nc1nc2cccc(-c3ccc(CN4CCS(=O)(=O)CC4)cc3)n2n1)C1CC1,item: nervous system disorders,human rheumatoid arthritis patients,"oral, 30 mg once daily, 4 weeks, regardless of relatedness",,treatment-emergent adverse events,17.6%
CCCc1oc(CCC(=O)O)c(C(=O)O)c1C,ultrafiltration,normal rat serum,37 °C,,serum protein binding,100%
CNC(=O)c1ccc(-c2cnc3ncc(Cc4ccc5ncccc5c4)n3n2)cc1F,"item: Diarrhea, all grades",cancer patients,"oral, 600 mg twice daily, other expansion cohort, any causality",,patients with adverse event,22%
N#CCNC(=O)c1ccc(-c2ccnc(Nc3ccc(N4CCOCC4)cc3)n2)cc1,,"healthy human volunteers, plasma","oral, dose not given, together with: multiple-dose rifampin",baseline: compound alone,AUCinf ratio,84.8%
COc1ccnc(C(=O)NCC(=O)O)c1O,soil adsorption,clay loam soil,"pH 7.2, organic carbon 4.4 %",,KFoc,159 mL/g
Cn1cc(Nc2nccc(-c3ccc4c(c3)CN(C3COC3)CC[C@H]4NC(=O)c3cn(C(C)(C)C)nn3)n2)cn1,,"human, whole blood","150 mg twice daily, day 7",baseline: pre-dose baseline,CD3+ T cell count change,-2.63%
COC(=O)N[C@@H](C)CNc1nccc(-c2cn(C(C)C)nc2-c2cc(Cl)cc(NS(C)(=O)=O)c2F)n1,,"human, plasma","oral, single dose, together with: diltiazem",baseline: compound alone,AUCinf geometric mean ratio,183%
CN1C(=O)[C@@H](NC(=O)c2nnc(Cc3ccccc3)[nH]2)COc2cccnc21,phase I single ascending dose,"human, male and female","oral, 400 mg, fasted",,TEAE leading to permanent discontinuation,0%
CC(=O)O[C@H]1C(=O)[C@@]2(C)[C@H]([C@H](OC(=O)c3ccccc3)[C@]3(O)C[C@H](OC(=O)[C@H](O)[C@@H](NC(=O)c4ccccc4)c4ccccc4)C(C)=C1C3(C)C)[C@]1(OC(C)=O)CO[C@@H]1C[C@@H]2O,item: Anaemia,patients with advanced solid tumours,"intravenous, dose not given, grade 1 and 2, possibly related to drug",,adverse event incidence,33%
Fc1ccc(CCCCN2CCN(c3ccccn3)CC2)cc1,"catalepsy, bar test",Sprague-Dawley rat,"intraperitoneal, dose not given, 60 min",,time on bar,< 20 s
Cn1ncnc1[C@H]1c2n[nH]c(=O)c3cc(F)cc(c23)N[C@@H]1c1ccc(F)cc1,,"human patients, plasma","oral, 600 µg/m2 twice daily day 1, day 5, dose level DL6, median, together with: temozolomide 55 mg/m2 daily days 2-6",,AUC(0-8h),76.1 ng·h/mL
N#CCC(=O)Nc1ccc(C2CCCCC2)cc1,liver microsome stability,cynomolgus liver microsomes,1 µM,,hepatic clearance,42 mL/min/kg
C=CC(=O)NC1CCN(c2ncc3ncnc(Nc4ccc(Oc5ccc6c(c5)ncn6C)c(C)c4)c3n2)CC1,,"human, male, plasma","oral, 240 mg, fed, adjusted geometric mean",,AUC(0-tz),59.5 µM·h
Cc1cc(Nc2ccc(S(F)(F)(F)(F)F)cc2)n2nc(C(C)(F)F)nc2n1,,Plasmodium vivax malaria patients,"oral, 800 mg",,adverse event gastrointestinal disorders,28.6%
CC(C)(c1ccc(O)cc1)c1ccc(O)cc1,,whole cow milk,200 nM nominal,,dose fraction in milk fat,39.4%
CCN1/C(=C/C(C)=O)Sc2ccc(F)cc21,,cynomolgus monkey,"oral, 100 mg/kg, 2 h post-dose",baseline: pre-dose,PR interval change,102 ± 2%
C=CC(=O)N1CCC([C@@H]2CCNc3c(C(N)=O)c(-c4ccc(Oc5ccccc5)cc4)nn32)CC1,,healthy human volunteers,"oral, dose not given",,TEAE contact dermatitis,4.7%
CCn1c(=O)c(-c2cc(NC(=O)Nc3ccccc3)c(F)cc2Br)cc2cnc(NC)cc21,item: gastrointestinal disorders,"human, mild hepatic impairment","oral, 50 mg single dose",,participants with drug-related TEAE,37.5%
FC(F)(F)c1cc(Nc2nc(Cl)nc(Cl)n2)cc(C(F)(F)F)c1,"chemical stability, HPLC-MS",borate buffered saline,"pH 10.2, no N-acetyl-lysine",,degradation rate constant,0.7 h⁻¹
CNCCOC12CC3(C)CC(C)(CC(Cn4ncc(-c5ccc(N6CCc7cccc(C(=O)Nc8nc9ccccc9s8)c7C6)nc5C(=O)O)c4C)(C3)C1)C2,,"beagle dog, male, anaesthetised","intravenous bolus, 0.03 mg/kg, 60 min",baseline: baseline,dP/dt at 50 change,0%
NCCONC(=O)[C@@H]1CC[C@@H]2CN1C(=O)N2OS(=O)(=O)O,,healthy Chinese men,"intravenous, 1 g, treatment-related",,adverse event incidence,37.5%
CC(C)C[C@@H]1NC(=O)CNC(=O)[C@H](CC(N)=O)NC(=O)[C@H](CCCNC(=N)N)NC(=O)[C@H]([C@@H](C)O)NC(=O)[C@@H]2CSSC[C@@H]3NC(=O)[C@H]([C@@H](C)O)NC(=O)CNC(=O)CNC(=O)[C@H](C(C)C)NC(=O)[C@@H]4CSSC[C@H](NC(=O)[C@H]([C@@H](C)O)NC(=O)[C@H](CSSC[C@H](NC(=O)[C@H](C(C)C)NC(=O)[C@@H]5CCCN5C1=O)C(=O)NCC(=O)N[C@@H](CCC(=O)O)C(=O)N[C@@H]([C@@H](C)O)C(=O)N4)NC(=O)CNC(=O)[C@@H]1CCCN1C(=O)[C@H]([C@@H](C)O)NC(=O)[C@H](CC(N)=O)NC3=O)C(=O)N[C@@H](CO)C(=O)N[C@@H](Cc1c[nH]c3ccccc13)C(=O)N1CCC[C@H]1C(=O)N[C@@H](C(C)C)C(=O)N2,HPLC,water,"180 µM, 14 days, 37 °C, deamidation stability",,remaining peptide,96.3 ± 0.7%
